Measured values of several laboratories.
Several values in a cell are separate wells, animals, samples, runs or records. ± marks the error that the study gave.
Genome polyprotein NS2B-NS3 protease: Genome polyprotein, NS2B-NS3 protease (dengue virus type 2, UniProt P29990)

SMILES | tested on | test | system | conditions | how to read | quantity | result
CC(C)C[C@H](NC(=O)[C@H](Cc1ccc(O)cc1)NC(=O)[C@@H](CCCNC(=N)N)NC(=O)[C@@H](CO)NC(=O)[C@H](Cc1ccccc1)NC(=O)[C@H](CC1CCCCC1)NC(=O)[C@H](CC(=O)O)NC(=O)CN1CCN(CC(=O)O)CCN(CC(=O)O)CCN(CC(=O)O)CC1)C(=O)N[C@@H](Cc1c[nH]c2ccccc12)C(=O)N[C@@H](CO)C(=O)O [copper-64 labelled] |  |  | human, adrenal | concentration not given, 24 h |  | activity concentration | 837 Bq/mL and 1080 Bq/mL and 766 Bq/mL and 737 Bq/mL and 937 Bq/mL and 618 Bq/mL
O=C(N/N=C/c1ccc2c(ccc[n+]2Cc2ccccc2)c1)c1cncc(C(=O)N/N=C/c2ccc3c(ccc[n+]3Cc3ccccc3)c2)n1 | telomeric G4 DNA hybrid-2 | FRET melting |  | 1 µM, DNA 0.2 µM |  | ΔTm | 23.1 ± 0.4 °C
c1ccc(-c2n[nH]cc2-c2ccnc3ccccc23)nc1 | DUN1 (Candida albicans) | kinase binding, MIB/MS competition | Candida albicans lysate | 1 µM | relative to: DMSO | log2 fold change | 0.01
Nc1ncc(-c2cc(-c3cnn(CC(F)(F)F)c3)ncc2F)nc1C(=O)NC1CNCC(F)C1 (centres unmarked) | SRC | KINOMEscan |  | 1 µM | relative to: DMSO control | remaining binding | 96%
COC1CN([C@H]2CC[C@H]([C@@]3(C)Oc4c(Cl)cc(C(=O)NCc5c(SC)cc(C)[nH]c5=O)c(C)c4O3)CC2)C1 |  | RNA-seq, item: ATP7B | human, whole blood | dose not given, 24 h | relative to: pretreatment baseline | log2 fold change | 2.44
CC(C)c1ccc(N(C)c2ccc3c(c2)OCC[C@H]3CNc2cnccc2C(=O)O)cc1 | NCI-H1666 | cell growth or viability, ATP luminescence |  | 7 days |  | IC50 | 1.17 nM
C[n+]1cccc2cc(/C=N/NC(=O)c3cc(C(=O)N/N=C/c4ccc5c(ccc[n+]5C)c4)ncn3)ccc21 | telomeric G4 DNA hybrid-2 | FRET melting |  | 1 µM, DNA 0.2 µM, added: duplex DNA competitor 10 µM |  | ΔTm | 2.5 ± 0.3 °C
Cc1ncsc1-c1ccc(C(C)NC(=O)C2CC(O)CN2C(=O)C(NC(=O)CCCCCCCCCCN2CCCC(Nc3ncc(Cl)c(Nc4ccccc4S(=O)(=O)C(C)C)n3)C2)C(C)(C)C)cc1 (centres unmarked) | 22Rv1 | RNA-seq, item: ZNF514 mRNA |  | concentration not given | relative to: DMSO | log2 fold change | -2.1
C=C(NC(=O)c1csc(-c2nc3c(cc2O)-c2nc(cs2)C(=O)NC(C(C)O)C(=O)NC(=C(C)OC)c2nc(cs2)C(=O)NC2c4nc(cs4)C(=O)NC(COC(=O)c4c5c6c(cccc6n4O)COC(=O)C(OC4CC(C)(O)C(N(C)C)C(C)O4)C2OC5)c2nc-3cs2)n1)C(N)=O (centres unmarked) | Streptococcus pneumoniae |  | -4, penicillin-resistant, mouse systemic infection | intravenous | survival | ED50 | 1.96 mg/kg
CC(=O)[O-].O.O.O.O.[Co+2].[O-]c1ccc(Br)cc1C=NCCN1CCOCC1 |  | superoxide scavenging |  | 40 µM |  | inhibition | 4.03%
O=C(Nc1ccc(CNc2ncccn2)cc1)c1cc(-c2ccccc2)n(-c2ccccc2)n1 | Genome polyprotein NS2B-NS3 protease | reporter gene | HeLa |  |  | EC50 | 34 µM
CC(C)(C)c1cc(-c2ccc3cccnc3n2)nc(-c2ccc3cccnc3n2)c1.COc1ccncc1.[Cl-].[Cl-].[Ru+2].c1ccc2cc3nc4c5cccnc5c5ncccc5c4nc3cc2c1 | B16-F10 | photocytotoxicity, resazurin |  | visible light 400-700 nm, 20 mW, 100 J/cm2 |  | EC50 | 0.871 µM and 0.87 µM
C[n+]1ccc(/C=N/NC(=O)C(=O)N/N=C/c2cc[n+](C)c3ccccc23)c2ccccc21 | telomeric G4 DNA hybrid-2 | FRET melting |  | 1 µM, DNA 0.2 µM |  | ΔTm | 2.2 ± 0.9 °C
N#C[C@@H]1CC(F)(F)CN1C(=O)CNC(=O)c1ccnc2c(NC(=O)[C@H](CCCCNC(=O)CCOCCOCCOCCOCCOCCOCCNC(=O)CN3CCN(CC(=O)[O-])CCN(CC(=O)[O-])CCN(CC(=O)[O-])CC3)NC(=O)CCCc3ccc(I)cc3)cccc12.[177Lu+3] | U-87 MG tumour model |  | host not given, blood | 96 h, tumour-bearing |  | tracer uptake | 0.14 %ID/g
N=C(N)NCCC[C@@H]1NC(=O)[C@H](CCCNC(=N)N)NC(=O)[C@@H](CCCNC(=N)N)NC(=O)[C@@H](CCCNC(=N)N)NC(=O)[C@@H](C(c2ccccc2)c2ccccc2)NC(=O)[C@H](Cc2c[nH]c3ccccc23)NC(=O)[C@@H](C(c2ccccc2)c2ccccc2)NC1=O | Aspergillus fumigatus |  | Af 293 | 4 x MIC, 12 h |  | reduction of viable cells | > 95%
CN1CCCNC(=O)c2cccc(c2)C(=O)NCCCN(C)CCCNc2cccc3c2C(=O)c2cccc(c2C3=O)NCCC1 | SAS | RNA-Seq, item: PLCXD2 mRNA |  | 1 µM, 6 h | relative to: untreated cells | log2 fold change | 1.07

SMILES | tested on | test | system | conditions | how to read | quantity | result
O=C(N/N=C/c1ccc2c(ccc[n+]2Cc2ccccc2)c1)N/N=C/c1ccc2c(ccc[n+]2Cc2ccccc2)c1 | telomeric G4 DNA hybrid-2 | FRET melting |  | 1 µM, DNA 0.2 µM |  | ΔTm | 13.4 ± 0.2 °C
C=CC(=O)N1[C@H](c2ccc3c(c2)OCO3)c2[nH]c3ccccc3c2C[C@@H]1C(=O)N1CCN(C)CC1 | human cyclin E1 N112C-3xFLAG:CDK2 | co-IP with TMT proteomics, item: HSPA8 |  | concentration not given, P11142 | relative to: wild type DMSO | relative co-enrichment | 95%
C[n+]1ccc(/C=N/NC(=O)c2ccc3ccc4ccc(C(=O)N/N=C/c5cc[n+](C)cc5)nc4c3n2)cc1 | telomeric G4 DNA hybrid-2 | FRET melting |  | 1 µM, DNA 0.2 µM |  | ΔTm | 25.5 ± 0.9 °C
Cn1ncc2cc(-c3cncc(Cl)c3N3CCC4(CCNC4=O)CC3)ccc21 | LS174T | gene expression, microarray, item: SLC2A4 (GLUT4) mRNA |  | concentration not given, 4 h | relative to: untreated cells | log2 fold change | 1.53
CNS(=O)(=O)Nc1nccc(Cc2c(C)c3ccc(Oc4ncccc4F)cc3oc2=O)c1F | SW837 | cell viability |  | 7 days |  | IC50 | 5.87 nM
COc1ccc(NC(=O)c2cc(-c3ccccc3)n(-c3ccccc3)n2)cc1 | Genome polyprotein NS2B-NS3 protease | reporter gene | HeLa |  |  | EC50 | 41 µM
CC[n+]1cccc2cc(/C=N/NC(=O)C(=O)N/N=C/c3ccc4c(ccc[n+]4CC)c3)ccc21 | telomeric G4 DNA hybrid-2 | FRET melting |  | 1 µM, DNA 0.2 µM, added: duplex DNA competitor 10 µM |  | ΔTm | 3.1 ± 1.4 °C
COc1cc(O)ccc1CCC(c1ccc(O)cc1)c1cc2c(c(C)c1O)OC(c1ccc(O)cc1)CC2 (mixture of isomers) |  | item: RvE3 | human whole blood | 3 µM, added: Escherichia coli |  | amount | 39 ± 1 pg/mL blood
CCCC[C@H](NC(=O)CCCCCCCNC(=O)CN1CCN(CC(=O)O)CCN(CC(=O)O)CC1)C(=O)N[C@H]1CC(=O)NCCCC[C@@H](C(N)=O)NC(=O)[C@H](Cc2c[nH]c3ccccc23)NC(=O)[C@H](CCCNC(=N)N)NC(=O)[C@@H](Cc2ccccc2)NC(=O)[C@H](Cc2c[nH]cn2)NC1=O [technetium-99m labelled] |  |  | C57 mouse, spleen | intravenous, 0.037 MBq, 0.5 h |  | tissue uptake | 1.16 ± 0.88 %ID/g
COCCOCCOCCNC(=O)Cc1cc(CC(=O)N[C@H]2C[C@H]3C(=O)Nc4cc(OCCOCCOCCOC)cc(n4)C(=O)N4CCC[C@H]4C(=O)Nc4cc(OCCOCCOCCOC)cc(n4)C(=O)N4CCC[C@H]4C(=O)Nc4cc(OCCOCCOCCOC)cc(n4)C(=O)N3C2)cc(CC(=O)N[C@H]2C[C@H]3C(=O)Nc4cc(OCCOCCOCCOC)cc(n4)C(=O)N4CCC[C@H]4C(=O)Nc4cc(OCCOCCOCCOC)cc(n4)C(=O)N4CCC[C@H]4C(=O)Nc4cc(OCCOCCOCCOC)cc(n4)C(=O)N3C2)c1 |  | anion binding, ITC | water/methanol, 70 % by volume | added: selenate |  | ΔH | -5.1 kJ/mol
C[n+]1cc(/C=N/NC(=O)c2ccc3ccc4ccc(C(=O)N/N=C/c5cc6ccccc6[n+](C)c5)nc4c3n2)cc2ccccc21 | telomeric G4 DNA hybrid-2 | FRET melting |  | 1 µM, DNA 0.2 µM, added: duplex DNA competitor 10 µM |  | ΔTm | 25.8 ± 1.7 °C
O=C(Nc1cnccc1-c1ccc([18F])cc1)c1ccnc(NC(=O)C2CC2)c1 |  |  | mice, transgenic, GSK-3β, early-stage, pancreas | intravenous, dose not given, 120 min |  | SUV | 0.16
O=C(N/N=C/c1cc[n+](CC2CC2)c2ccccc12)N/N=C/c1cc[n+](CC2CC2)c2ccccc12 | telomeric G4 DNA hybrid-2 | FRET melting |  | 1 µM, DNA 0.2 µM |  | ΔTm | 11.8 ± 0.8 °C
[Cl-].[Cl-].[Ru+2].c1cc(-c2ccc3cccnc3n2)nc(-c2ccc3cccnc3n2)c1.c1ccc2cc3nc4c5cccnc5c5ncccc5c4nc3cc2c1 | B16-F10 | resazurin |  | added: light 523 nm, 20 mW, 100 J/cm2 |  | EC50 | 27.4 µM
C=CC(=O)Nc1cccc(Cn2ncc3cnc(Nc4cnn(CCOC)c4)nc32)c1 | PIM2 human | binding, KINOMEscan |  | 100 nM | lower = stronger binding | percent of control | 100%
O=C(Nc1cnccc1-c1ccc([18F])nc1)c1ccnc(NC(=O)C2CC2)c1 |  |  | FVB/NJ mice, both sexes, liver | intravenous, 20 min, median, P-gp inhibitor pretreatment, added: tariquidar 15 mg/kg iv |  | SUV | 8.86

A few entries again:
SMILES | tested on | test | system | conditions | how to read | quantity | result
CN1CCCNC(=O)c2cccc(c2)C(=O)NCCCN(C)CCCNc2cccc3c2C(=O)c2cccc(c2C3=O)NCCC1 | SAS | RNA-Seq, item: PLCXD2 mRNA |  | 1 µM, 6 h | relative to: untreated cells | log2 fold change | 1.07
CC(C)(C)c1cc(-c2ccc3cccnc3n2)nc(-c2ccc3cccnc3n2)c1.COc1ccncc1.[Cl-].[Cl-].[Ru+2].c1ccc2cc3nc4c5cccnc5c5ncccc5c4nc3cc2c1 | B16-F10 | photocytotoxicity, resazurin |  | visible light 400-700 nm, 20 mW, 100 J/cm2 |  | EC50 | 0.871 µM and 0.87 µM
C=CC(=O)Nc1cccc(Cn2ncc3cnc(Nc4cnn(CCOC)c4)nc32)c1 | PIM2 human | binding, KINOMEscan |  | 100 nM | lower = stronger binding | percent of control | 100%
CC(C)c1ccc(N(C)c2ccc3c(c2)OCC[C@H]3CNc2cnccc2C(=O)O)cc1 | NCI-H1666 | cell growth or viability, ATP luminescence |  | 7 days |  | IC50 | 1.17 nM
CC(=O)[O-].O.O.O.O.[Co+2].[O-]c1ccc(Br)cc1C=NCCN1CCOCC1 |  | superoxide scavenging |  | 40 µM |  | inhibition | 4.03%
